Published values collected from several papers.
A part holds a random share of what one study measured. Changes are numbered by the printed parent chain.
UniProt O15294, sequence (whole entry, looked up): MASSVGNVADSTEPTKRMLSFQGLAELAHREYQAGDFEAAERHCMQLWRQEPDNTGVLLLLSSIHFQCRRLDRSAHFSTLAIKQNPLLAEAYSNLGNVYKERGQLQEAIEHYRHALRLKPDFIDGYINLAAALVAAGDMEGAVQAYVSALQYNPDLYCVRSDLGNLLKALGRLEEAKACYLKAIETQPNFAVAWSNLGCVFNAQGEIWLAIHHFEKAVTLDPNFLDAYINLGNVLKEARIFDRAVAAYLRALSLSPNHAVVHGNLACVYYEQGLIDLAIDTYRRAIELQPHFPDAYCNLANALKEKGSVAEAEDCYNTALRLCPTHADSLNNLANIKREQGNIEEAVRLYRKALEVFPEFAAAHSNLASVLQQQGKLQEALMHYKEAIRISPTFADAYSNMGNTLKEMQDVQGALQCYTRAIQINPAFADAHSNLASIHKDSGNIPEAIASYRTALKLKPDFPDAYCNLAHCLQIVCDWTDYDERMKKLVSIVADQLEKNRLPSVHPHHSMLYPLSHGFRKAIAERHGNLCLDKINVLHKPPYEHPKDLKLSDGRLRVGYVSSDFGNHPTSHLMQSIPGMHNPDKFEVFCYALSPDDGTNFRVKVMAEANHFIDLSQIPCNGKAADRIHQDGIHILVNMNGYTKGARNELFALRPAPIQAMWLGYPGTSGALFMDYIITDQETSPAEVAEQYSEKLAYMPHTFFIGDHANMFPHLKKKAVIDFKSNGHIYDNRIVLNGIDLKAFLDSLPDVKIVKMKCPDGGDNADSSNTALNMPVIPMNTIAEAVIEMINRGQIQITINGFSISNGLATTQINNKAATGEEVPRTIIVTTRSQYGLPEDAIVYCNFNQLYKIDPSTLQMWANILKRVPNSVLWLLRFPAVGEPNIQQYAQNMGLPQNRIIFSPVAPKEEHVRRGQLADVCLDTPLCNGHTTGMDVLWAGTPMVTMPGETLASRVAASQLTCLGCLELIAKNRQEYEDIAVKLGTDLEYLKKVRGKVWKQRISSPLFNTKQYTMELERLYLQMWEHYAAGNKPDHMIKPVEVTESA

Study 1
Target: Ras GTPase-activating protein-binding protein 1, full length (G3BP1, Homo sapiens, UniProt Q13283)
UniProt Q13283, sequence (whole entry, looked up): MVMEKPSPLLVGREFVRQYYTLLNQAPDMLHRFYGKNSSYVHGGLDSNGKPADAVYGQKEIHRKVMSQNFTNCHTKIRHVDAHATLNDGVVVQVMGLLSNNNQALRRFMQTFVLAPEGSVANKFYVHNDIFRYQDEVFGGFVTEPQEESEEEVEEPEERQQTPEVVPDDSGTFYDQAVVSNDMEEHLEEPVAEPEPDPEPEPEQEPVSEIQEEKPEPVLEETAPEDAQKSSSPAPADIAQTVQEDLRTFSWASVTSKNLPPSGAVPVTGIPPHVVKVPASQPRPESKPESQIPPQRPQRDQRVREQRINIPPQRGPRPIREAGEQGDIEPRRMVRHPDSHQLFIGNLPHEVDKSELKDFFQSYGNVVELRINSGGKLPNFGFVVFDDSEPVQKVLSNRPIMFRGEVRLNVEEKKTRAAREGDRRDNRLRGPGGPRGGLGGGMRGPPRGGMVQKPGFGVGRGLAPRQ
Method: RNA Bind-n-Seq
Form: RNA
Medium: in vitro
Concentration: 200 nM
Notes: whole 134-nt RNA, ends assumed
With: 150 mM KCl
Baseline: input library
Reading: higher = stronger binding
Shared flanks, not repeated: GGGAGUUCUACAGUCCGACGAUC … UGGAAUUCUCGGGUGUCAAGG
| Oligonucleotide | log2 enrichment |
| --- | --- |
| UGGCCCUGGUGGCAUGCGGGGAGGCAGAGGUGGCCUCAUGGAUCGUGGUGGUCCCGGUGGAAUGUUCAGAGGUGGCCGUGGUGGAGACAG | 0.173 |
| GUCCUGUGCUACACAUCGUAUGUACCGAAUCGGGGAGGGGAAAGGGGUUUUUUUGGGGAAAGUAUUAUGUUACGCCGUUCGGAUCUGCAC | 0.569 |
| ACCAUGCAGGUGGGCAUCUUUGGGAAGUCGGGCAAGGGGGGGAUAGGGAGGGGGGUAACACUUUGGGAACAGGUGGUCCCAGGUCGUUUC | 1.1 |
| CACAGACAACACGCACCCACACCGACACAGAGGGAAGGGGUUGGGAUGGGGACAGGGUGCACAGCAGGGCGGGGUAGGACCCCAGCCCCU | 2.02 |
| UUUAAGAGCAGCCAGGGAGAUAGUGGCGUUGACUUGAGUGCCGAGUCUCGGGAGUCGUCUGCGACCUCCUCGCAGCGCAGCUCCCCAUAU | 0.722 |
| UAGCUAAACUAAUGUCAACUUAUUUCCUUUUUUCCUUUAGCCACCAUCAAAGAACAGACGAGAGAGAACAGAACUGAAGCCUGAUUUCUU | -0.96 |
| GUCCUGUGCUACACAUCGUAUGUACCGAAUCAAAGUGUGUGUGUGUGUGUGUGUGAAAAAAGUAUUAUGUUACGCCGUUCGGAUCUGCAC | 0.599 |
| GUCCUGUGCUACACAUCGUAUGUACCGAAUCGGGCCCCCGGCCCCCGGGGCCCCCGGGGAAAGUAUUAUGUUACGCCGUUCGGAUCUGCA | -0.941 |

Study 2
Target: CCNA2, cyclin fold, Cln2 fusion (human)
Method: yeast growth competition, sequencing
Medium: yeast
Notes: strong parent motif
Baseline: not given
Reading: higher = stronger binding
Parent: E2F1 docking peptide (human); PPVKRRLDLETDH
| Change | normalised enrichment score |
| --- | --- |
| P1E | 3.15 |
| V3T | 2.63 |
| H13M | 4.93 |
| D8H | 2.95 |
| P1I | 4.11 |
| R5L | -0.372 |
| D12S | 4.53 |
| P2C | 3.84 |

Study 3
Target: ABI1, truncated, D143A, DHFR fusion (Arabidopsis thaliana)
Method: DHFR PCA, deep sequencing
Medium: yeast
Notes: methotrexate growth selection, single substitutions
With: (+)-ABA 2500 µM
Baseline: wild-type fitted maximum
Reading: higher = stronger binding
Parent: PYL1, truncated, DHFR fusion (Arabidopsis thaliana); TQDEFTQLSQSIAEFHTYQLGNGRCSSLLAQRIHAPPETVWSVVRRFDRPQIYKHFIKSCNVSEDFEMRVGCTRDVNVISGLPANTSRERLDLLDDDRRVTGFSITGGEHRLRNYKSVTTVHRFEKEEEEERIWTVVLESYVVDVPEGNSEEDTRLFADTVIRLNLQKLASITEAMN; partner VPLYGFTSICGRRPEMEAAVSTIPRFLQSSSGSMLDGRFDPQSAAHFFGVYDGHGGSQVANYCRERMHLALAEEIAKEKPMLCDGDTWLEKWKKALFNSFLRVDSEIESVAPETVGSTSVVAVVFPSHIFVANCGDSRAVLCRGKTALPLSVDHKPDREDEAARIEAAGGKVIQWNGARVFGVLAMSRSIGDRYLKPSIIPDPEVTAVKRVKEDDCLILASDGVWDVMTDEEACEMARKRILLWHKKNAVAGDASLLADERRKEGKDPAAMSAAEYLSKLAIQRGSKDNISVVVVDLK
| Change | relative binding score [%] |
| --- | --- |
| S63A | 97.5 |
| S104R | 91.6 |
| E174D | 87.7 |
| D97R | 92 |
| D95G | 67.9 |
| M68I | 97.6 |
| E127C | 95.4 |
| Q10C | 106 |

Other studies, line by line
| Molecule | target | test | system | setting | scale | endpoint | result |
| --- | --- | --- | --- | --- | --- | --- | --- |
| VGMNQNAYMPMYQIH | UDP-N-acetylglucosamine--peptide N-acetylglucosaminyltransferase 110 kDa subunit (OGT, Homo sapiens, UniProt O15294) | binding, phage display NGS | peptide | concentration not given | baseline: input library | enrichment fold change | 10.4 |

Some of these lines once more (study 2):
| Change | normalised enrichment score |
| --- | --- |
| V3T | 2.63 |
| P1I | 4.11 |
